Published values pooled from the literature.
± marks the error that the study gave.
Matrix: plasma

CC[C@H](C)[C@H](NC(=O)[C@H](CC(C)C)NC(=O)[C@H](Cc1c[nH]c2ccccc12)NC(=O)[C@H](CCC(N)=O)NC(=O)[C@@H](NC(=O)[C@H](Cc1ccccc1)NC(=O)[C@H](C)NC(=O)[C@H](CCCCNC(=O)COCCOCCNC(=O)COCCOCCNC(=O)CC[C@H](NC(=O)CCCCCCCCCCCCCCCCCCC(=O)O)C(=O)O)NC(=O)[C@H](CCC(N)=O)NC(=O)[C@H](C)NC(=O)[C@@H](NC(=O)[C@H](CCCCN)NC(=O)[C@H](CC(=O)O)NC(=O)[C@H](CC(C)C)NC(=O)C(C)(C)NC(=O)[C@@H](NC(=O)[C@H](CO)NC(=O)[C@H](Cc1ccc(O)cc1)NC(=O)[C@H](CC(=O)O)NC(=O)[C@H](CO)NC(=O)[C@@H](NC(=O)[C@H](Cc1ccccc1)NC(=O)[C@@H](NC(=O)CNC(=O)[C@H](CCC(=O)O)NC(=O)C(C)(C)NC(=O)[C@@H](N)Cc1ccc(O)cc1)[C@@H](C)O)[C@@H](C)O)[C@@H](C)CC)[C@@H](C)CC)C(C)C)C(=O)N[C@@H](C)C(=O)NCC(=O)NCC(=O)N1CCC[C@H]1C(=O)N[C@@H](CO)C(=O)N[C@@H](CO)C(=O)NCC(=O)N[C@@H](C)C(=O)N1CCC[C@H]1C(=O)N1CCC[C@H]1C(=O)N1CCC[C@H]1C(=O)N[C@@H](CO)C(N)=O  AUC(0-inf) (human, severe hepatic impairment; subcutaneous, 5 mg): 74600 ng·h/mL
Oc1ccc2ccc3c4ccccc4cc4ccc1c2c43  AUC(0-inf) (UPLC-AMS; human; oral, 25 ng of [14C]-BaP): 21 ± 27.9 fg BaP equivalents·h/mL
CC[C@H](C)[C@H](NC(=O)[C@H](CC(C)C)NC(=O)[C@H](Cc1c[nH]c2ccccc12)NC(=O)[C@H](CCC(N)=O)NC(=O)[C@@H](NC(=O)[C@H](Cc1ccccc1)NC(=O)[C@H](C)NC(=O)[C@H](CCCCNC(=O)COCCOCCNC(=O)COCCOCCNC(=O)CC[C@H](NC(=O)CCCCCCCCCCCCCCCCCCC(=O)O)C(=O)O)NC(=O)[C@H](CCC(N)=O)NC(=O)[C@H](C)NC(=O)[C@@H](NC(=O)[C@H](CCCCN)NC(=O)[C@H](CC(=O)O)NC(=O)[C@H](CC(C)C)NC(=O)C(C)(C)NC(=O)[C@@H](NC(=O)[C@H](CO)NC(=O)[C@H](Cc1ccc(O)cc1)NC(=O)[C@H](CC(=O)O)NC(=O)[C@H](CO)NC(=O)[C@@H](NC(=O)[C@H](Cc1ccccc1)NC(=O)[C@@H](NC(=O)CNC(=O)[C@H](CCC(=O)O)NC(=O)C(C)(C)NC(=O)[C@@H](N)Cc1ccc(O)cc1)[C@@H](C)O)[C@@H](C)O)[C@@H](C)CC)[C@@H](C)CC)C(C)C)C(=O)N[C@@H](C)C(=O)NCC(=O)NCC(=O)N1CCC[C@H]1C(=O)N[C@@H](CO)C(=O)N[C@@H](CO)C(=O)NCC(=O)N[C@@H](C)C(=O)N1CCC[C@H]1C(=O)N1CCC[C@H]1C(=O)N1CCC[C@H]1C(=O)N[C@@H](CO)C(N)=O  AUC(0-inf) (human, moderate renal impairment; subcutaneous, 5 mg single dose, eGFR 30-59, geometric mean): 104000 ng·h/mL
COc1ccsc1CNCC[C@@]1(c2ccccn2)CCOC2(CCCC2)C1  AUC(0-inf) (healthy human, normal hepatic function; intravenous, 1 mg single dose, arithmetic mean): 24.5 ± 7.5 ng·h/mL
COc1ccc(C[C@@H]2NC(=O)[C@H]([C@@H](C)O)NC(=O)[C@@H]3[C@@H]4CCN3C(=O)[C@@H]3Cc5cn(c6ccc(F)cc56)CCCCCCN(Cc5ccc(cc5)CCNC(=O)[C@]5(C)CCCN5C2=O)C(=O)CCC(=O)N[C@@H](C)C(=O)N[C@H](CNC(=O)CCCCC[N+](C)(C)C)C(=O)N[C@@H](Cc2cccc(c2)CNC(=O)CO4)C(=O)N3)cc1  AUC(0-inf) (fasted healthy humans; oral, 35 mg single dose, with 1800 mg Labrasol, geometric mean): 0.54 µM·h
O[C@H]1CCCN[C@@H]1CCCn1cnc2c(Cl)c(Cl)ccc21  AUC(0-inf) (human; oral, 500 mg single dose, tablet, geometric mean): 2340 ng·h/mL
CCCCCOc1ccc(-c2ccc(-c3ccc(C(=O)N[C@H]4C[C@@H](O)[C@@H](OCC[N+](C)(C)C)NC(=O)[C@@H]5[C@@H](O)[C@@H](C)CN5C(=O)[C@H]([C@@H](C)O)NC(=O)[C@H]([C@H](O)[C@@H](O)c5ccc(O)cc5)NC(=O)[C@@H]5C[C@@H](O)CN5C(=O)[C@H]([C@@H](C)O)NC4=O)cc3)cc2)cc1  AUC(0-inf) (healthy adult human; subcutaneous, 10 mg): 40100 ng·h/mL
CC[C@@]1(O)C(=O)OCc2c1cc1n(c2=O)Cc2cc3c(CN(C)C)c(O)ccc3nc2-1  AUC(0-inf) (human patients; oral, 8 mg weekly, day 15, geometric mean, with: pazopanib 800 mg daily): 237 ng·h/mL

A few entries again:
COc1ccc(C[C@@H]2NC(=O)[C@H]([C@@H](C)O)NC(=O)[C@@H]3[C@@H]4CCN3C(=O)[C@@H]3Cc5cn(c6ccc(F)cc56)CCCCCCN(Cc5ccc(cc5)CCNC(=O)[C@]5(C)CCCN5C2=O)C(=O)CCC(=O)N[C@@H](C)C(=O)N[C@H](CNC(=O)CCCCC[N+](C)(C)C)C(=O)N[C@@H](Cc2cccc(c2)CNC(=O)CO4)C(=O)N3)cc1  AUC(0-inf) (fasted healthy humans; oral, 35 mg single dose, with 1800 mg Labrasol, geometric mean): 0.54 µM·h
